Published values gathered from unrelated publications.
Protocols differ between the studies behind these lines. Several values in a cell are separate wells, animals, samples, runs or records. Numbers after ± are the reported error.
Cell line: MCF7

CCCCn1cc(C(=O)O)c(=O)c2cc(F)c3c(nnn3-c3cccc(Cl)c3)c21  IC50 (cell growth, SRB; 72 h): 22.5 ± 1.54 µg/mL
COc1cc(O)c2c(=O)c3c(O)c(-c4c(C)cc5c(c4O)C(=O)C4=C(O)C[C@H](OC)[C@@H](O)[C@]4(C)O5)c(C)cc3oc2c1OC  IC50 (cell growth or viability, resazurin; 72 h): > 82.4 µM
O=c1[nH]c(=O)c2cccc(O)c2o1  IC50 (cytotoxicity): 100 µM
C#CCCC[C@@H]1OC(=O)CNC(=O)[C@H]([C@@H](C)CC)NC(=O)[C@@H]2CCCN2C(=O)[C@H]([C@@H](C)CC)OC(=O)[C@H](Cc2ccccc2)NC(=O)[C@H](C(C)C)NC(=O)C1(C)C  IC50 (cell growth or viability, MTT; 48 h): > 100 µM
CC=C(C)C(=O)OC1C(O)C2OC(COC(=O)CCC(=O)CCCCCCC(CCCCC)OC3OC(C)C(OC(C)=O)C(O)C3O2)C1OC(=O)CCc1ccccc1 (stereo not shown)  IC50 (cytotoxicity): 2.56 µM
CCCCn1cc(C(=O)O)c(=O)c2cc(F)c(Nc3cccc(Cl)c3)c([N+](=O)[O-])c21  IC50 (cell proliferation, SRB; 72 h): 6 µM and 5.99 µM
CC=C(C)C(=O)OC1C(OC(=O)C=Cc2ccccc2)C2COC(=O)CCC(=O)CCCCCCC(CCCCC)OC3OC(C)C(OC(C)=O)C(OC(C)=O)C3OC(O2)C1OC(C)=O (stereo not shown)  IC50 (cytotoxicity): > 10 µM
CO[C@H]1CC(O)=C2C(=O)c3c(cc(C)c(-c4c(C)cc5c(c4O)C(=O)C4=C(O)C[C@H](OC)[C@@H](O)[C@]4(C)O5)c3O)O[C@@]2(C)[C@@H]1O  IC50 (cell growth or viability, resazurin; 72 h): 30.5 µM
CC=C(C)C(=O)OC1C(O)C2OC(COC(=O)CCC(=O)CCCCCCC(CCCCC)OC3OC(C)C(O)C(O)C3O2)C1OC(=O)C=Cc1ccccc1 (stereo not shown)  IC50 (cytotoxicity): 0.0867 µM
CCCCn1cc(C(=O)O)c(=O)c2cc(F)c(Nc3ccccc3Cl)c([N+](=O)[O-])c21  IC50 (cell growth or viability, SRB): 63.6 µM

For quick reference, copied from above:
COc1cc(O)c2c(=O)c3c(O)c(-c4c(C)cc5c(c4O)C(=O)C4=C(O)C[C@H](OC)[C@@H](O)[C@]4(C)O5)c(C)cc3oc2c1OC  IC50 (cell growth or viability, resazurin; 72 h): > 82.4 µM
